Measurements collected from several papers.
Compare with care: the assays were run in different laboratories. Values joined by “and” are separate records of one study, mostly repeats; a detail may differ.
Cell line: HOP-92

SMILES = CCN(CC)c1ccc(C=NNC(=O)CSc2nc3ccccc3c(=O)n2Cc2ccc(S(N)(=O)=O)cc2)c(O)c1; assay = NCI five-dose screen; endpoint = TGI; value = > 100 µM
SMILES = COC(=O)/C=C1\C(=O)C=C2C3CC4CC(CCC4(C)N21)C3(C)NC(C)=O (centres unmarked); assay = cell growth, NCI screen; endpoint = IC50; value = 18 µM
SMILES = Cc1cc(C)n(-c2nc(-c3ccc(Cl)cc3)c3c(NC(=O)c4ccccc4)nnc-3[nH]2)n1; assay = SRB; setting = 10 µM, NCI60 single-dose screen; how to read = reference: untreated; endpoint = cell growth; value = 75.6%
SMILES = CCCN1CCN(c2ccc3nc(-c4ccc5nc(-c6cc(OC)ccc6OC)[nH]c5c4)[nH]c3c2)CC1; assay = SRB; setting = 10 µM, 48 h; endpoint = growth percent; value = 110%
SMILES = NNc1nc(-c2ccc(Cl)cc2)c2c(NC(=O)c3ccccc3)nnc-2[nH]1; assay = SRB; setting = 10 µM, NCI60 single-dose screen; how to read = reference: untreated; endpoint = cell growth; value = 94.9%
SMILES = CCCCN1CCN(c2ccc3nc(-c4ccc5nc(-c6cc(OC)ccc6OC)[nH]c5c4)[nH]c3c2)CC1; assay = SRB; setting = 10 µM, 48 h; endpoint = growth percent; value = 87.4%
SMILES = CSc1nc(-c2ccc(Cl)cc2)c2c(NC(=O)c3ccccc3)nnc-2[nH]1; assay = SRB; setting = 10 µM, NCI60 single-dose screen; how to read = reference: untreated; endpoint = cell growth; value = -95%
SMILES = O=C1NC(c2ccccc2)(c2ccccc2)C(=O)N1Cc1cn(-c2c3ccccc3nc3ccccc23)nn1; assay = NCI60 single-dose screen; setting = 10 µM; endpoint = growth percentage; value = 67.3%
SMILES = C#C[C@@]1(O)[C@@H](CO)O[C@@H](n2cc(Cl)c3c(N)ncnc32)[C@@H]1O; assay = SRB; setting = NCI-60 screen; endpoint = TGI; value = 3.74 µM and 3.33 µM
SMILES = O=c1ccn(Cc2cn(-c3cc4ccccc4oc3=O)nn2)c(=O)[nH]1; assay = NCI60 single-dose screen; setting = 10 µM; endpoint = growth percentage; value = 88.4%
SMILES = CCOC(=O)CSc1nc(-c2ccc(Cl)cc2)c2c(NC(=O)c3ccccc3)nnc-2[nH]1; assay = SRB; setting = 10 µM, NCI60 single-dose screen; how to read = reference: untreated; endpoint = cell growth; value = 109%
SMILES = [Br-].c1ccc2cc(Cn3c[n+](Cc4ccc5ccccc5c4)c4ccccc43)ccc2c1; assay = NCI60 five-dose screen; endpoint = TGI; value = 1.57 µM
SMILES = Cc1n[nH]c2nc(-c3ccc(Cl)cc3)c3c(NC(=O)c4ccccc4)nnc-3n12; assay = SRB; setting = 10 µM, NCI60 single-dose screen; how to read = reference: untreated; endpoint = cell growth; value = 119%
SMILES = COCCOCCOCc1n(Cc2ccc3ccccc3n2)c2ccccc2[n+]1Cc1ccc2ccccc2c1.[Br-]; assay = NCI60 five-dose screen; endpoint = TGI; value = 0.718 µM
SMILES = CCOc1ccc(-c2nc3cc(-c4nc5cc(N6CCN(C)CC6)ccc5[nH]4)ccc3[nH]2)cc1OCC; assay = SRB; setting = 10 µM, 48 h; endpoint = growth percent; value = 48.8%
SMILES = Cc1n(Cc2ccc3ccccc3c2)c2ccccc2[n+]1Cc1ccc2ccccc2c1.[Br-]; assay = NCI60 five-dose screen; endpoint = TGI; value = 2.06 µM
SMILES = CCCCN1CCN(c2ccc3[nH]c(-c4ccc5[nH]c(-c6ccc(C(F)(F)F)cc6)nc5c4)nc3c2)CC1; assay = SRB; setting = 10 µM, 48 h; endpoint = growth percent; value = -13.5%
SMILES = Cc1cc(=O)[nH]n1-c1nc(-c2ccc(Cl)cc2)c2c(NC(=O)c3ccccc3)nnc-2[nH]1; assay = SRB; setting = 10 µM, NCI60 single-dose screen; how to read = reference: untreated; endpoint = cell growth; value = 106%
SMILES = CCCN1CCN(c2ccc3[nH]c(-c4ccc5[nH]c(-c6ccc(C(F)(F)F)cc6)nc5c4)nc3c2)CC1; assay = SRB; setting = 10 µM, 48 h; endpoint = growth percent; value = 63%
SMILES = Cn1cncc1C1=CN(c2ncnc3[nH]cnc23)CCS1; setting = lung cancer; endpoint = TGI; value = 77.6 µM
SMILES = Cc1cc(=O)[nH]c(=O)n1Cc1cn(-c2cc3ccccc3oc2=O)nn1; assay = NCI60 single-dose screen; setting = 10 µM; endpoint = growth percentage; value = 78.4%
SMILES = CCCCN1CCN(c2ccc3[nH]c(-c4ccc5[nH]c(-c6ccc(OCC)cc6)nc5c4)nc3c2)CC1; assay = SRB; setting = 10 µM, 48 h; endpoint = growth percent; value = 95.9%
SMILES = CCCCCCCCCCCCCCCCCCOc1ccc(CC(=O)OCC[N+]2(C)CCCC2)cc1; assay = SRB; setting = 10 µM; endpoint = growth inhibition; value = < 0%

Repeated from above:
SMILES = Cc1n(Cc2ccc3ccccc3c2)c2ccccc2[n+]1Cc1ccc2ccccc2c1.[Br-]; assay = NCI60 five-dose screen; endpoint = TGI; value = 2.06 µM
SMILES = CCCCN1CCN(c2ccc3[nH]c(-c4ccc5[nH]c(-c6ccc(C(F)(F)F)cc6)nc5c4)nc3c2)CC1; assay = SRB; setting = 10 µM, 48 h; endpoint = growth percent; value = -13.5%
SMILES = Cc1cc(=O)[nH]n1-c1nc(-c2ccc(Cl)cc2)c2c(NC(=O)c3ccccc3)nnc-2[nH]1; assay = SRB; setting = 10 µM, NCI60 single-dose screen; how to read = reference: untreated; endpoint = cell growth; value = 106%
